Measured values of several laboratories.
Each numbered part is a random draw from the data of one study; scales do not carry over between parts.

Series 1
Target: Histone acetyltransferase KAT6A, winged helix 1, GST fusion (KAT6A, Homo sapiens, UniProt Q92794, residues 1-85)
Method: protein binding microarray
Form: double-stranded DNA, one strand shown
Matrix: in vitro
Tested at: not given
Notes: 8-mer, flanks averaged, mean of 2 arrays, mostly near background
Baseline: not given
Direction: higher = stronger binding
Residues (chain): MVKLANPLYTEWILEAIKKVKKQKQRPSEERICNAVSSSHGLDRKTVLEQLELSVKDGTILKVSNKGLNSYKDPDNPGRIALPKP
| Sequence | E-score |
| --- | --- |
| AATATATA | 0.00985 |
| AATGCTAA | -0.145 |
| ACAAGCTC | -0.183 |
| AAAGAATC | -0.0509 |
| CAGGACCC | 0.0519 |
| GCAACTAA | -0.0251 |
| AAGTGCAA | -0.116 |
| TGGTTGAA | -0.225 |
| AGGCGCGC | 0.435 |

Series 2
Target: Interferon regulatory factor 7, full length, phosphomimetic (IRF7, Homo sapiens, UniProt Q92985, residues 1-503, S101K/S471D/S472D/S475D/S476D/S477D/S483D/S484D/S487D)
Method: protein-binding microarray
Form: double-stranded DNA, one strand shown
Matrix: in vitro
Tested at: 250 nM
Notes: 60-bp whole probe
Together with: salmon DNA 0.4 mg/ml
Baseline: random background probes
Direction: higher = stronger binding
All sequences stand within: GCCTAGCAC … GTCTTGATTCGCTTGACGCTGCTG
Construct (chain): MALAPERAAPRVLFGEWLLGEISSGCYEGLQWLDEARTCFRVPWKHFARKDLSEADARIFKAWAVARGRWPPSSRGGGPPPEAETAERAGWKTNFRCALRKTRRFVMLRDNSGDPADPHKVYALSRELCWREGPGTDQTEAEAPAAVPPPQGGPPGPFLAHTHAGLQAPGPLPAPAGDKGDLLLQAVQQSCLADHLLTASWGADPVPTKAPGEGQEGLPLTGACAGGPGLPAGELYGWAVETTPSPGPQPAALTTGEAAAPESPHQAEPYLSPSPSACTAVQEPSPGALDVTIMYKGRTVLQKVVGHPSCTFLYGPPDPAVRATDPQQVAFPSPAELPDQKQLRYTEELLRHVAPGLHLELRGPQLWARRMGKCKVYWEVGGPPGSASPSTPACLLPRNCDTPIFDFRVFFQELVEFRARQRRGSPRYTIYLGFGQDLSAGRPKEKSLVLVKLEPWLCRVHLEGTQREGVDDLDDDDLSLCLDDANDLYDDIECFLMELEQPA
| Sequence | log fluorescence [z-score] |
| --- | --- |
| GGCGGACTGCTTCTCCTGACGTGCTAG | -0.79 |
| TTAGGTTTAGGTTTCGGTTAGTGCTAG | 8.14 |
| GACGAACTGAGTTTCGAGCCGTGCTAG | 1.66 |
| TTCATTATTGTCTTCCCCATGTGCTAG | 1.04 |
| TCACCTTTACATTCCCCACTGTGCTAG | 0.865 |
| CACGGACTGGACTTTCGGGACGTGCTA | -0.398 |
| TTAGGTATCGGTTTCGGCTAGTGCTAG | 6.77 |
| TCATTTTCACTTTTCCTACTGTGCTAG | 3.77 |
| GAGGAACTGGGGTTTCGAGACGTGCTA | 2.33 |
| CTCTGCTTGTATCTGGGTTCGTGCTAG | 0.177 |

Series 3
Target: PABPC1L2, full length, GST fusion (mouse, UniProt A0ABA7IW68)
Method: RNAcompete
Form: RNA
Matrix: in vitro
Tested at: 20 nM
Notes: 7-mer, probes averaged, single round
Baseline: mean of 7-mers
Direction: higher = stronger binding
Construct (chain): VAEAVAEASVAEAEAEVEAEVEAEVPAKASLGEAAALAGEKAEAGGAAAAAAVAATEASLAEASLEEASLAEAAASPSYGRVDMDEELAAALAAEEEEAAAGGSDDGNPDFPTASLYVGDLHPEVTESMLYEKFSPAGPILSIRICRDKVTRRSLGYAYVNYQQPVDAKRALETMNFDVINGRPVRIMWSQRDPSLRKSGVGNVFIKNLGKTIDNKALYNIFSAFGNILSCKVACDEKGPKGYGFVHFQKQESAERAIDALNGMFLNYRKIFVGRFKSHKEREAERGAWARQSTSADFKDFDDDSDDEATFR
| Sequence | 7-mer Z-score |
| --- | --- |
| CGGUUUC | -0.385 |
| AGGUUUU | -0.36 |
| AUACUCG | -0.233 |
| UUCUCAA | -0.32 |
| UCAGCUA | -0.2 |
| AAGCGAU | 0.1 |
| AAGCGCC | 0.0261 |
| AUAACGA | 0.115 |
| UACGUUC | -0.383 |
| UCUUCGU | -0.463 |

Other studies, line by line
| Substance | target | assay | system | conditions | scale | quantity | result |
| --- | --- | --- | --- | --- | --- | --- | --- |
| PhoQ, residues 284 288 289 292 302 303 SLANIV | PhoP, residues 12 14 15 18 19 LHHSG (Escherichia coli, UniProt P23836) | Sort-seq, measured: YFP reporter | E. coli | PhoQ-PhoP variant library, together with: 10 µM Mg2+ | baseline: high Mg2+ state, higher = stronger signaling | fold induction | 5.75 |

For quick reference, copied from above (series 3):
| Sequence | 7-mer Z-score |
| --- | --- |
| AAGCGAU | 0.1 |
| AAGCGCC | 0.0261 |
| AUAACGA | 0.115 |
